Assay results of several laboratories.
Ywhag: 14-3-3 protein gamma (Ywhag, Mus musculus, UniProt P61982)
HLA class I histocompatibility antigen, A alpha chain allele A*33:03: HLA class I histocompatibility antigen, A alpha chain, allele A*33:03 (Homo sapiens, UniProt P04439)
CCR1: C-C chemokine receptor type 1 (CCR1, Homo sapiens, UniProt P32246)
HLA class I histocompatibility antigen, A alpha chain allele A*02:01: HLA class I histocompatibility antigen, A alpha chain, allele A*02:01 (Homo sapiens, UniProt P04439)

Substance = QPRHRNSLSDSA (TLE6(203–214) peptide); target = Ywhag; assay = binding, isothermal titration calorimetry; system = peptide; setting = pH 7.5, 25 °C; quantity = Kd; result = not detected
Substance = QHVKITDFGR; target = HLA class I histocompatibility antigen, A alpha chain allele A*33:03; assay = MHC class I stabilisation, flow cytometry; system = peptide, TAP2-knockout TISI monoallelic cells; setting = 25 µM, 18 h, 37 °C, added: β2-microglobulin 3 µg/mL; scale = reference: DMSO; quantity = HLA class I surface increase; result = 25.4%
Substance = sacituzumab; target = Tumor-associated calcium signal transducer 2 (TACSTD2, Homo sapiens, UniProt P09758); assay = binding, bio-layer interferometry; quantity = Kd; result = 0.329 nM
Substance = GFGLATVKSR; target = HLA class I histocompatibility antigen, A alpha chain allele A*33:03; assay = MHC class I stabilisation, flow cytometry; system = peptide, TAP2-knockout TISI monoallelic cells; setting = 25 µM, 18 h, 37 °C, added: β2-microglobulin 3 µg/mL; scale = reference: DMSO; quantity = HLA class I surface increase; result = -0.5%
Substance = galanin; target = rebH (Lentzea aerocolonigenes, UniProt Q8KHZ8, A442V/K145M/M71V/N467T/N470S/S2P); assay = substrate, HPLC; quantity = conversion; result = 21.4%
Substance = KPGKGSETVV; target = human MAGI1-2/6 PDZ construct (MBP fusion); assay = automated holdup; system = peptide, purified PDZ protein; setting = concentration not given, unit not given; scale = reference: biotin control resin, higher = stronger binding; quantity = binding intensity; result = 0.482
Substance = Pentraxin 3; target = Ly96 (Mus musculus, UniProt Q9JHF9); assay = binding, fluorescence titration; setting = pH 7.4, 25 °C, added: BODIPY FL-labelled alarmin; quantity = Kd; result = 434 nM
Substance = TRRRFLSESDEL (TLE6(133-144)); target = Ywhag; assay = binding, isothermal titration calorimetry; system = peptide; setting = pH 7.5, 25 °C; quantity = Kd; result = not detected
Substance = daratumumab; target = CD38 (Homo sapiens, UniProt P28907); assay = binding, ELISA; quantity = Kd; result = 0.72 nM
Substance = MIP-1alpha; target = CCR1; assay = radioligand binding, agonist; setting = reference compound; quantity = Hill coefficient; result = 0.7
Substance = HMGB1; target = Advanced glycosylation end product-specific receptor (Ager, Mus musculus, UniProt Q62151); assay = binding, fluorescence titration; setting = pH 7.4, 25 °C, added: BODIPY FL-labelled alarmin; quantity = Kd; result = 236 nM
Substance = LIMQLMPFG; target = HLA class I histocompatibility antigen, A alpha chain allele A*02:01; assay = conformational ELISA; system = peptide; setting = concentration not given; scale = reference: positive control peptide, direction not given; quantity = binding score; result = 13.3%
Substance = GSGAGQITKV; target = human MAGI1-2/6 PDZ construct (MBP fusion); assay = automated holdup; system = peptide, purified PDZ protein; setting = concentration not given, unit not given; scale = reference: biotin control resin, higher = stronger binding; quantity = binding intensity; result = 0.0429
Substance = MIP-1α; target = CCR1; assay = binding, agonist radioligand displacement; quantity = IC50; result = 0.082 nM
Substance = ITDFGRAKL; target = HLA class I histocompatibility antigen, A alpha chain allele A*02:01; assay = MHC class I stabilisation, flow cytometry; system = peptide, TAP2-knockout TISI monoallelic cells; setting = 25 µM, 18 h, 37 °C, added: β2-microglobulin 3 µg/mL; scale = reference: DMSO; quantity = HLA class I surface increase; result = 0.1%
Substance = STIM1; target = ERO1-like protein alpha (Homo sapiens, UniProt Q96HE7); assay = bio-layer interferometry; quantity = Kd; result = 2600 nM
Substance = TEYKLVVVGAV; target = HLA class I histocompatibility antigen, A alpha chain allele A*33:03; assay = MHC class I stabilisation, flow cytometry; system = peptide, TAP2-knockout TISI monoallelic cells; setting = 25 µM, 18 h, 37 °C, added: β2-microglobulin 3 µg/mL; scale = reference: DMSO; quantity = HLA class I surface increase; result = 0.3%
Substance = LPPGAVPPGAHFDPFGPIGT (PI31(232–251) R242H); target = Proteasome subunit beta type-3/PSMB7 (Homo sapiens, UniProt P49720+Q99436); assay = trypsin-like activity, inhibitor; system = peptide, human constitutive proteasome; setting = 10 nM, added: Boc-LRR-AMC; quantity = inhibition; result = decreased

A few entries again:
Substance = MIP-1α; target = CCR1; assay = binding, agonist radioligand displacement; quantity = IC50; result = 0.082 nM
Substance = ITDFGRAKL; target = HLA class I histocompatibility antigen, A alpha chain allele A*02:01; assay = MHC class I stabilisation, flow cytometry; system = peptide, TAP2-knockout TISI monoallelic cells; setting = 25 µM, 18 h, 37 °C, added: β2-microglobulin 3 µg/mL; scale = reference: DMSO; quantity = HLA class I surface increase; result = 0.1%
Substance = STIM1; target = ERO1-like protein alpha (Homo sapiens, UniProt Q96HE7); assay = bio-layer interferometry; quantity = Kd; result = 2600 nM
